# Experimental data collected from several papers.
# Each numbered part is a random draw from the data of one study; scales do not carry over between parts.
# UniProt O43683, sequence (whole entry, looked up): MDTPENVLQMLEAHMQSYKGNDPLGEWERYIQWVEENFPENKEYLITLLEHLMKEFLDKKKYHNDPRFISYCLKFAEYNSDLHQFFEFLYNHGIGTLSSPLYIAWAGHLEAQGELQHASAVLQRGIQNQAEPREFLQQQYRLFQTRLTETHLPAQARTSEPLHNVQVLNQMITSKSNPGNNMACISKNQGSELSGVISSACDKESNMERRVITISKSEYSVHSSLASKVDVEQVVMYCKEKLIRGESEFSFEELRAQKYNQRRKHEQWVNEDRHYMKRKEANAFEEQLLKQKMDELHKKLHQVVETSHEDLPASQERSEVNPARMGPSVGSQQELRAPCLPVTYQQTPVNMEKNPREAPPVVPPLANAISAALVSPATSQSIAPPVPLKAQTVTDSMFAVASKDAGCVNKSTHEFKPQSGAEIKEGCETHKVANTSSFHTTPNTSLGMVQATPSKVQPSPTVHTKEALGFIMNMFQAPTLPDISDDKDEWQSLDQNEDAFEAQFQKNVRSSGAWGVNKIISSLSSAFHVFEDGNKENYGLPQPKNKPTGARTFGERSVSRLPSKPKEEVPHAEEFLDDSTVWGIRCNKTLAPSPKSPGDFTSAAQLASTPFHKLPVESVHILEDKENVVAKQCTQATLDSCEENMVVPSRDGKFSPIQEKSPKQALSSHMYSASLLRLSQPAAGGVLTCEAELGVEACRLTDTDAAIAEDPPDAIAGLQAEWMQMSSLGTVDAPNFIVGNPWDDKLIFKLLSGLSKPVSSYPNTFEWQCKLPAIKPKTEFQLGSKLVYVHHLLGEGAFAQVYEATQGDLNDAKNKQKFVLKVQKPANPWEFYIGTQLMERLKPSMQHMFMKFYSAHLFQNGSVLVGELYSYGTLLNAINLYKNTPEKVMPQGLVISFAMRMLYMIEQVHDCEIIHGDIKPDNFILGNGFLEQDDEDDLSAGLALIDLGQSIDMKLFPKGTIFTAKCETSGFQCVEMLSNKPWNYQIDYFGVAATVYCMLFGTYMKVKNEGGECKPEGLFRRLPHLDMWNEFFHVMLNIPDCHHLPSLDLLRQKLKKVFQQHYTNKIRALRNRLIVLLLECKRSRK
# UniProt O14757, sequence (whole entry, looked up): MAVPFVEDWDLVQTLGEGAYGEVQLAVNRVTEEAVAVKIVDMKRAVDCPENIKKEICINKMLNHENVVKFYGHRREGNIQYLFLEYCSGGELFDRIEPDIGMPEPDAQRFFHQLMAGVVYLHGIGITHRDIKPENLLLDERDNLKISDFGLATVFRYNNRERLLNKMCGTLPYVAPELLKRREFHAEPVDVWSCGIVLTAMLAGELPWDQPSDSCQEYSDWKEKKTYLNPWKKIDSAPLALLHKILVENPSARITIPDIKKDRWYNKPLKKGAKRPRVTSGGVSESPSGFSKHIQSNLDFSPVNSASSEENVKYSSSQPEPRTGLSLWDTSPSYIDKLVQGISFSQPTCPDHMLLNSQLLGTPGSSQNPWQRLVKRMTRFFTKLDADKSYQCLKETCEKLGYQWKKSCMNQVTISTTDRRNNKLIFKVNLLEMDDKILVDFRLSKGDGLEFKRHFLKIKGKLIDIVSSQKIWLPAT
# UniProt Q9NYY3, sequence (whole entry, looked up): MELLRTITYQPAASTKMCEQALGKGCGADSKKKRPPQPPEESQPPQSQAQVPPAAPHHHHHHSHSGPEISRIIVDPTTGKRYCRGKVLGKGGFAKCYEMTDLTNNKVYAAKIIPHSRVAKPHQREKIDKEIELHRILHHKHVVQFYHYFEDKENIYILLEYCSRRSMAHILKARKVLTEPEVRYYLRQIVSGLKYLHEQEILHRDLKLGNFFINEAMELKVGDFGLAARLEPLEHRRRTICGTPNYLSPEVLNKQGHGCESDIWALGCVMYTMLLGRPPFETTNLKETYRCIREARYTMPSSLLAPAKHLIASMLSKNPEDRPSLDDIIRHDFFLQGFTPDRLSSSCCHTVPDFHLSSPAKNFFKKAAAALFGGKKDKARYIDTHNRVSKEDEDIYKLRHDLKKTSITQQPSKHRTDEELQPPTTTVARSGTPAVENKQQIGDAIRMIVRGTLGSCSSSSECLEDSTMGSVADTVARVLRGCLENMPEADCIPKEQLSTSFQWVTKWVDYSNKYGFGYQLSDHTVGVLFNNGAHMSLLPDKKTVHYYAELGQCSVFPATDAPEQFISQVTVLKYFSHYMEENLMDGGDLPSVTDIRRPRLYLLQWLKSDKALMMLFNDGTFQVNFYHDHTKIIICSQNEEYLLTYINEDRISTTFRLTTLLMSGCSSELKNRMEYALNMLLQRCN
# UniProt P10721, sequence (whole entry, looked up): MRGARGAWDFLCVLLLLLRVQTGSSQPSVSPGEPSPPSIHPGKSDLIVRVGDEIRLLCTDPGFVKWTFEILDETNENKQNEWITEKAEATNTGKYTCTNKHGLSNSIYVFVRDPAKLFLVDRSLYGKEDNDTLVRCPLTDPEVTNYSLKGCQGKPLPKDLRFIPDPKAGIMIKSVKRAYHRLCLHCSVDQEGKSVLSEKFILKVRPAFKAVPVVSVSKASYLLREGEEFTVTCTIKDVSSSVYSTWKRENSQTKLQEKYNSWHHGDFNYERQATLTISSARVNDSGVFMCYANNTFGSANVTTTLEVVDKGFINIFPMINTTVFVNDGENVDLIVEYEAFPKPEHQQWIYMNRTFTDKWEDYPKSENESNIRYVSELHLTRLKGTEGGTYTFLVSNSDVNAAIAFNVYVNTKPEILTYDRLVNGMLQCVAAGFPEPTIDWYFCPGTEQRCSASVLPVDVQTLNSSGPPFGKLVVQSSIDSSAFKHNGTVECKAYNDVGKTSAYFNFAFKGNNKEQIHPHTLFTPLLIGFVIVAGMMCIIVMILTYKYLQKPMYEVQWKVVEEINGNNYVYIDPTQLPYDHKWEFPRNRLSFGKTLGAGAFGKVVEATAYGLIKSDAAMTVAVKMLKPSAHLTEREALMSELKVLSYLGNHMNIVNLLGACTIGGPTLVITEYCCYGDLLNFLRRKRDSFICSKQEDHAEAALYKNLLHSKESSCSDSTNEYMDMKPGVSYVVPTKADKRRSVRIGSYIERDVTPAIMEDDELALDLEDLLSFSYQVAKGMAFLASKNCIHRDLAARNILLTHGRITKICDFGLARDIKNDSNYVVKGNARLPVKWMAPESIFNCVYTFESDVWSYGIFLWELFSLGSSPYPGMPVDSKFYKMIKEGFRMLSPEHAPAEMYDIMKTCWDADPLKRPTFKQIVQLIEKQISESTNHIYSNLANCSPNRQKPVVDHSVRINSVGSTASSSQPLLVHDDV
# UniProt P22607, sequence (whole entry, unmodified, looked up): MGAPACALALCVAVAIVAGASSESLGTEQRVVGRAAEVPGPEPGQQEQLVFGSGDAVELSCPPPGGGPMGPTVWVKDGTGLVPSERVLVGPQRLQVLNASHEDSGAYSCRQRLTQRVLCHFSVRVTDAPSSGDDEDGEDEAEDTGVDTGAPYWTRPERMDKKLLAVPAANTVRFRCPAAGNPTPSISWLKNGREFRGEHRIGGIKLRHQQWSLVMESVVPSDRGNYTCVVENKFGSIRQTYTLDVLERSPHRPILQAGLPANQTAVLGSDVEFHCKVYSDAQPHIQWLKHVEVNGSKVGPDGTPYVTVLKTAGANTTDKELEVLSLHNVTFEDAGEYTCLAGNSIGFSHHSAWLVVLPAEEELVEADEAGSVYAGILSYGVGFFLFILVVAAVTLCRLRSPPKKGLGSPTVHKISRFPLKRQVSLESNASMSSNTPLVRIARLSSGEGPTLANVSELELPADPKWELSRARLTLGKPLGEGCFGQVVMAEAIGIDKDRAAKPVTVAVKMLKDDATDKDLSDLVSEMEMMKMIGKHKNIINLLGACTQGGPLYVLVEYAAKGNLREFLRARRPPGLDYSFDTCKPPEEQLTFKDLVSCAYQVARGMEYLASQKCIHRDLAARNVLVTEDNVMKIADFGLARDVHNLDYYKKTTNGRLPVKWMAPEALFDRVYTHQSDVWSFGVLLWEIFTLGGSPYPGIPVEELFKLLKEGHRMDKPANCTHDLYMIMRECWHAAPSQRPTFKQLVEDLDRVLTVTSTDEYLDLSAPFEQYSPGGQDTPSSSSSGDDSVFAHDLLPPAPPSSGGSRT
# UniProt Q15208, sequence (whole entry, looked up): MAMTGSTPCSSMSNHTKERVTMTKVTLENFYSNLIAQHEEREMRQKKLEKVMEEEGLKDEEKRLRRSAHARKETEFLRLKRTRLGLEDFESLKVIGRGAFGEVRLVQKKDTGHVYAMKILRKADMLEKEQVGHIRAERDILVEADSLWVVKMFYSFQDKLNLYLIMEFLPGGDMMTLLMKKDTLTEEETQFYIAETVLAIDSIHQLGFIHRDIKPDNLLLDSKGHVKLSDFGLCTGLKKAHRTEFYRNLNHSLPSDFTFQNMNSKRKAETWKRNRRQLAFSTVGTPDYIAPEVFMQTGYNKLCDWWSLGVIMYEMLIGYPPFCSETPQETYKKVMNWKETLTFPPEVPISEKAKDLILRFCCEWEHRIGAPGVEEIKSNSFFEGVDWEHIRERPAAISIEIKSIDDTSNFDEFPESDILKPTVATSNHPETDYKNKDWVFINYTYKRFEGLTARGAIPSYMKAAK

# Sample 1
# Read-out: AlphaScreen signal
# Technique: AlphaScreen counter screen
# Medium: His6 peptide without bromodomain
# Tested at: 50 µM
# Notes: assay interference check
Structure (SMILES),inhibition [%]
CC(Nc1nccnc1-c1ccccc1Cl)c1ccccc1 (centres unmarked),16.4
C[C@]12O[C@H](C[C@]1(O)CO)n1c3ccccc3c3c4c(c5c6ccccc6n2c5c31)CNC4=O,18.1
Clc1ccc(CNc2cncc(-c3ccsc3)c2)cc1,8.8
COc1ccc(Nc2ncc(F)c(N3CCOCC3)n2)cc1,15.7
Cl.Cn1cc(C2=C(c3c4n(c5ccccc35)CCC(CN)C4)C(=O)NC2=O)c2ccccc21 (centres unmarked),93.7
Nc1nc2ccc([N+](=O)[O-])cc2c(=O)[nH]1,6.9
O=C1NC(=O)c2c1c1c3ccccc3[nH]c1c1[nH]c3cc(Br)ccc3c21,37.8
O=C(O)Cc1csc(NC(=O)c2ccc(Br)cc2)n1,19.9
Cc1nc(N)sc1-c1csc(Nc2ccc(N)cc2)n1,89.7
COc1ccc(COc2ccc(Cc3cnc(N)nc3N)cc2OC)cc1,24.2

# Sample 2
# SMILES: CNCc1ccccc1-c1csc([C@H](C)Nc2nc(C)nc3cc(OC)c(OC)cc23)c1
# Tested at: 1 µM
target,read-out,technique,remaining binding [%]
"GRK2 (Homo sapiens, UniProt P25098)",cell-free assay,competition with immobilised ligand,100
"PAK4 (Homo sapiens, UniProt O96013)",cell-free assay,competition with immobilised ligand,100
"ALK (Homo sapiens, UniProt Q9UM73)",cell-free assay,competition with immobilised ligand,73
"RIOK3 (Homo sapiens, UniProt O14730)",cell-free assay,competition with immobilised ligand,100
"SIK1 (Homo sapiens, UniProt P57059)",,competition binding,100
"FGFR3 (Homo sapiens, UniProt P22607, G697C)",cell-free assay,competition with immobilised ligand,100
"MAPK15 (Homo sapiens, UniProt Q8TD08)",cell-free assay,competition with immobilised ligand,100
"MAP2K7 (Homo sapiens, UniProt O14733)",cell-free assay,competition with immobilised ligand,81
"LIM domain kinase 1 (LIMK1, Homo sapiens, UniProt P53667)",cell-free assay,competition with immobilised ligand,100
"ANKK1 (Homo sapiens, UniProt Q8NFD2)",cell-free assay,competition with immobilised ligand,90
"PRKD3 (Homo sapiens, UniProt O94806)",cell-free assay,competition with immobilised ligand,100
"MAPK1 (Homo sapiens, UniProt P28482)",cell-free assay,competition with immobilised ligand,100
"MAP4K3 (Homo sapiens, UniProt Q8IVH8)",cell-free assay,competition with immobilised ligand,100
"BMPR1B (Homo sapiens, UniProt O00238)",cell-free assay,competition with immobilised ligand,100
"CHEK1 (Homo sapiens, UniProt O14757)",cell-free assay,competition with immobilised ligand,100
"FRK (Homo sapiens, UniProt P42685)",cell-free assay,competition with immobilised ligand,100
"FER (Homo sapiens, UniProt P16591)",cell-free assay,competition with immobilised ligand,100
"Tyrosine-protein kinase ABL1, phosphorylated (ABL1, Homo sapiens, UniProt P00519, Q252H)",cell-free assay,competition with immobilised ligand,84
"FLT3 (Homo sapiens, UniProt P36888, D835Y)",cell-free assay,competition with immobilised ligand,100
"BUB1 (Homo sapiens, UniProt O43683)",cell-free assay,competition with immobilised ligand,100
"RET (Homo sapiens, UniProt P07949, M918T)",cell-free assay,competition with immobilised ligand,99
"NEK6 (Homo sapiens, UniProt Q9HC98)",cell-free assay,competition with immobilised ligand,100
"CDC42BPG (Homo sapiens, UniProt Q6DT37)",,competition binding,100
"CDK4 (Homo sapiens, UniProt P11802)",cell-free assay,competition with immobilised ligand,100
"TSSK1B (Homo sapiens, UniProt Q9BXA7)",cell-free assay,competition with immobilised ligand,93

# Sample 3
# SMILES: Clc1ccc(Nc2nnc(Cc3ccncc3)c3ccccc23)cc1
# Read-out: enzyme activity
# Mode: inhibitor
# Tested at: 0.5 µM
# Relative to: control
target,remaining activity [%]
"AKT3 (Homo sapiens, UniProt Q9Y243)",89.9
"WNK2 (Homo sapiens, UniProt Q9Y3S1)",96.3
"CSNK1A1 (Homo sapiens, UniProt P48729)",95
"PLK2 (Homo sapiens, UniProt Q9NYY3)",101
"STK38 (Homo sapiens, UniProt Q15208)",100
"MAP4K2 (Homo sapiens, UniProt Q12851)",107
"MAPK13 (Homo sapiens, UniProt O15264)",88.9
"MAPK12 (Homo sapiens, UniProt P53778)",96.8
"Cyclin-dependent kinase 9, with cyclin T1 (CDK9, Homo sapiens, UniProt P50750)",94.9
"CSNK2A1 (Homo sapiens, UniProt P68400)",114
"EPHA5 (Homo sapiens, UniProt P54756)",109
"LRRK2 (Homo sapiens, UniProt Q5S007)",74.8
"PRKG1 (Homo sapiens, UniProt Q13976)",97.2
"PRKCI (Homo sapiens, UniProt P41743)",94.2
"MAP2K6 (Homo sapiens, UniProt P52564)",95.3
"IRAK4 (Homo sapiens, UniProt Q9NWZ3)",85.1
"BTK (Homo sapiens, UniProt Q06187)",95.4
"KIT (Homo sapiens, UniProt P10721)",45.7

# Sample 4
# Target: Eukaryotic initiation factor 4A-III (Homo sapiens, UniProt P38919)
# UniProt P38919, sequence (whole entry, looked up): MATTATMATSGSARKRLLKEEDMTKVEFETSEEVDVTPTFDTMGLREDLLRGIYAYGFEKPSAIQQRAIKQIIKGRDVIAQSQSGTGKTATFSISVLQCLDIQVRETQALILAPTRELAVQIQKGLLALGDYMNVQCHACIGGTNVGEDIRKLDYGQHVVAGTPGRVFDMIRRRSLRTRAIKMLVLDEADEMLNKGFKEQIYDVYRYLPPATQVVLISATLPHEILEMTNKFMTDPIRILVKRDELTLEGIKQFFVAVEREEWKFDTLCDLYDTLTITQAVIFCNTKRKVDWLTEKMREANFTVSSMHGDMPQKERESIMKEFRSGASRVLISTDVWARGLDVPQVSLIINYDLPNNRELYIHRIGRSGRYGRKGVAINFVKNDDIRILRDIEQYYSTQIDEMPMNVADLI
# Read-out: RNA clamping
# Technique: fluorescence polarization
# Tested at: concentration not given
# Notes: mean of two replicates
# Together with: FAM-labelled poly r(AG)8 RNA
SMILES,fluorescence polarization change
COc1ccc([C@@]23Oc4cc(OC)cc(OC)c4[C@]2(O)c2nc(-c4ccccc4)n(CC(CC(=O)O)OC)c(=O)c2[C@H]3c2ccccc2)cc1 (some centres unmarked),9.9 mP
COC(=O)[C@H]1C(=O)[C@@]2(NCC3CCOCC3)c3c(OC)cc(OC)cc3O[C@@]2(c2ccc(OC)cc2)[C@@H]1c1ccccc1,-2.6 mP
C#CCOCCOCCNC(=O)CCCn1c(-c2ccccc2)nc2c(c1=O)[C@@H](c1ccccc1)[C@]1(c3ccc(OC)cc3)Oc3cc(OC)cc(OC)c3[C@]21O,17 mP
COC(=O)[C@@H]1[C@@H](O)[C@@]2(O)c3c(OC)cc(OS(=O)(=O)c4ccc(C)cc4)cc3O[C@@]2(c2ccc(OC)cc2)[C@H]1c1ccccc1,0.3 mP
COc1ccc([C@@]23Oc4cc(OC)cc(OC)c4[C@]2(O)c2nc(-c4ccccc4)[nH]c(=O)c2/C3=C\Cc2ccccc2)cc1,2.8 mP
C#CCCC1(CCOc2cc(OC)c3c(c2)O[C@@]2(c4ccc(OC)cc4)[C@H](c4ccccc4)[C@@H](C(=O)c4ccco4)[C@@H](O)[C@@]32O)N=N1,-3.1 mP
COC(=O)[C@@H]1[C@@H](c2ccccc2)[C@]2(c3ccc(OC)cc3)Oc3cc(OC)cc(OC)c3[C@@]23NC(c2cccnc2)=N[C@@]13O,27.4 mP
COc1ccc([C@@]23Oc4cc(OC)cc(OC)c4[C@]2(O)c2nc(-c4ccccn4)[nH]c(=O)c2[C@H]3c2ccccc2)cc1,10.2 mP
COC(=O)[C@@H]1[C@@H](O)[C@@]2(O)c3c(OC)cc(F)cc3O[C@@]2(c2ccc(Cl)cc2)[C@H]1c1ccccc1,13.2 mP
COc1ccc([C@@]23Oc4cc(OC)cc(OC)c4[C@]2(O)[C@H](O)[C@H](C(=O)c2cc4ccccc4n2C)[C@H]3c2ccccc2)cc1,7.3 mP
O[C@H]1C[C@@H](c2ccccc2)[C@]2(c3ccc(Cl)cc3)Oc3cc(OCCN4CCCC4)ccc3[C@]12O,74 mP
COc1ccc([C@@]23Oc4cc(OC)cc(OC)c4[C@]2(O)[C@@H]2OC(=O)[C@@H]2[C@H]3c2ccccc2)cc1,25.5 mP
